Measurements from different studies.
Several values in a cell are separate wells, animals, samples, runs or records. ± marks the error that the study gave.

| SMILES | tested on | test | system | setting | scale | quantity | value |
| --- | --- | --- | --- | --- | --- | --- | --- |
| Cn1cc(Nc2nccc(-c3ccc4c(c3)CN(C3COC3)CC[C@H]4NC(=O)c3cn(C(C)(C)C)nn3)n2)cn1 |  | refers to: Unfolded protein response | splenic B cells, mouse | in vivo, 30 mg/kg, IgD-activated B cells | relative to: vehicle, positive = activation | pathway activation z-score | -2.14 |
| O=C(NO)c1cccc(C(=O)NCCc2ccccc2)c1 | OCI-Ly1 |  |  | 0.5 µM, 120 h |  | viability | 172% |
| N#CCNC(=O)c1ccc(-c2ccnc(Nc3ccc(N4CCOCC4)cc3)n2)cc1 |  |  | patients with myelofibrosis | dose not given, 24 weeks, phase III trials |  | rate of TSS reduction ≥50% | 28.6% |
| O=C(O)/C=C/c1nccc2c3ccccc3n(Cc3ccc(Br)c4ccccc34)c12 |  |  | mouse, acute hyperuricaemia model, serum | oral, 2 mg/kg | relative to: vehicle model | serum uric acid decrease | 78.8% |
| C=CCn1c(=O)c2cnc(Nc3ccc(N4CCN(C)CC4)cc3)nc2n1-c1ccc2c(n1)[C@@](O)(CC)CC2 |  |  | A-427 xenograft, NOD/SCID mouse | 20 mg/kg once daily |  | tumour growth inhibition | 16% |
| N#Cc1ccc2c(c1)[C@H]1CCCN(C(=O)c3ccc4[nH]cnc4c3)[C@H]1C2 |  | refers to: LDL | human | 80 mg once daily, day 28, adjusted mean |  | change from baseline | -4.99 mg/dL |
| CS(=O)(=O)NC(=O)c1cc2ccccc2n1Cc1ccc(Br)c2ccccc12 |  |  | mouse, acute hyperuricemia model | dose not given |  | serum uric acid | 467 µM and 408 µM and 638 µM and 567 µM and 523 µM and 404 µM |
| c1ccc(-c2cc(-c3ccccc3)n(Cn3ccnc3)n2)cc1 |  |  | rat, STZ-nicotinamide diabetic | 150 mg/kg, 264 h, full-thickness excision wound |  | wound size | 12 mm |
| c1ccc(-c2n[nH]cc2-c2ccnc3ccccc23)nc1 |  | kinase binding, competitor, MIB/MS competition, refers to: TPK2 | Candida albicans cell lysate | 100 nM | relative to: DMSO | log2 fold change | 1.56 |
| COc1ncc(-c2nc3c(n2C(C)C)[C@H](c2ccc(Cl)cc2)N(c2cc(Cl)cn(C)c2=O)C3=O)c(OC)n1 |  | International Working Group criteria | human acute myeloid leukemia patients | oral, 45 mg, response Unknown, low-dose, recommended dose for expansion |  | best overall response | 3.7% |
| CCC/C(=C\C1=C(OC)C(=O)c2ccccc2C1=O)C(=O)N(CC)CC |  | subretinal neovascularization | Vldlr-/- mouse | intraperitoneal, 12.5 or 25 mg/kg twice daily, 7 days | relative to: vehicle | neovascular area | decreased |
| C[C@@H](O)CCOC(=O)C[C@@H](C)O |  | refers to: C5:1 acylcarnitine | human, plasma | 60 min, log2-transformed values |  | metabolite level | -4.31 ± 0.28 µmol/L |
| COc1c(Cl)cccc1Nc1c(-c2ccncc2OC[C@@H]2COCCO2)[nH]c2c1C(=O)NCC2 |  |  | human | oral, 20 mg twice daily, 30 weeks |  | tumour shrinkage | 53% |
| CN[C@@H]1COc2c(S(=O)(=O)NC(=O)Nc3c4c(cc5c3CCC5)CCC4)cnn2C1 |  | refers to: IL-1β | human participants, whole blood ex vivo | 450 mg single dose, 24 h, together with: LPS/ATP | relative to: baseline | inhibition | 89.2% |
| COc1cc2cc(-c3ccc(CC(=O)Nc4cc(C(C)(C)C(F)(F)F)no4)cn3)cnc2cc1OC |  | RECIST v1.1 | RET-altered advanced solid tumour patients | oral, 10 mg once daily, phase I |  | objective response rate | 0% |
| C[C@H]1C[C@H]2CSC(N)=N[C@@]2(c2nc(NC(=O)c3ccc(OC(F)F)cn3)cs2)CO1 |  |  | healthy adults, fed, plasma | oral, 200 mg single dose, 24 h | relative to: baseline, placebo-adjusted | plasma Aβ1-40 change | -83.5% |
| COc1ccc(S(=O)(=O)NC(=O)c2cc3ccccc3n2Cc2ccc(C3CC3)c3ccccc23)cc1 |  |  | male mouse, acute hyperuricaemia model, serum | oral, 2 mg/kg, 4 h |  | serum uric acid | 251 ± 77.4 µM |
| N#Cc1ccc2c(-c3ccncc3)c(-c3ccc(F)cc3)nn2c1 |  | kinase binding, competitor, MIB/MS competition, refers to: KIN3 | Candida albicans cell lysate | 100 nM | relative to: DMSO | log2 fold change | 0.374 |
| CN(C)C(=O)Oc1cccc([N+](C)(C)C)c1 |  | neuromuscular block reversal | rat | dose not given, 2.5 (unit not given), together with: cisatracurium | relative to: T1 twitch | train-of-four ratio | 4.15 |
| Cc1cc(/C=C2\Oc3cc(OCC4CC4)ccc3C2=O)cc(C)c1OC(C)(C)C(=O)O |  |  | db/db mice, MCD diet-fed, WAT and BAT | oral, 30 mg/kg, 45 days daily | relative to: model group | adipocyte size | decreased |
| O=C(OC(C(F)(F)F)C(F)(F)F)N1CCN(Cc2cccc(Oc3ccccc3)c2)CC1 |  | PET blocking study | rhesus monkey, brain CB | 0.1 mg/kg, compound pretreatment, together with: [18F]T-401 tracer |  | k3 | 1.18 min⁻¹ |
| CC(C)[C@H](NC(=O)[C@H](Cc1ccc(O)cc1)NC(=O)[C@H](Cc1ccc(O)cc1)NC(=O)[C@@H]1CCCN1C(=O)[C@H](CCC(=O)O)NC(=O)[C@H](CCC(=O)O)NC(=O)[C@H](Cc1c[nH]c2ccccc12)NC(=O)[C@@H]1CCCN1C(=O)[C@@H](NC(=O)[C@H](CCC(N)=O)NC(=O)c1ccc2c(c1)C(=O)OC21c2ccc(O)cc2Oc2cc(O)ccc21)C(C)C)C(=O)N[C@H](C(=O)N[C@@H](CCCCN)C(=O)N[C@@H](CCCCN)C(=O)N[C@@H](CO)C(=O)N[C@@H](CO)C(=O)NCC(=O)NCC(N)=O)C(C)C |  | nerve discrimination | head and neck surgery patients | 500 mg | relative to: white light | surgeons rating not improved | 35.7% |
| C[C@H](Oc1ccc(Br)cc1-c1ccon1)C(=O)O |  | muscle velocity recovery cycle | human, tibialis anterior muscle | 200 mg once daily, first response latency at 30 Hz, multiple ascending dose |  | difference from placebo | 0.27% |
| O=C(NS(=O)(=O)c1ccc(C(F)(F)F)cc1)c1cc2ccccc2n1Cc1ccc(Br)c2ccccc12 |  |  | mouse, acute hyperuricemia model | dose not given |  | serum uric acid | 351 µM and 374 µM and 255 µM and 243 µM and 232 µM and 259 µM |
| Cc1ccc([C@@H]2O[C@H](CO)[C@@H](O)[C@H](O)[C@H]2O)cc1Cc1ccc(-c2ccc(F)cc2)s1 |  |  | Japanese type 2 diabetes patients | 100 mg, day 17 | relative to: day 1 | change in fasting plasma glucose | -29 mg/dL |

| SMILES | tested on | test | system | setting | scale | quantity | value |
| --- | --- | --- | --- | --- | --- | --- | --- |
| C[C@@H](NC(=O)N1C(=O)[C@H](Cc2ccnc(N)c2)[C@H]1C(=O)O)C1CCCCC1 |  |  | human | iv infusion, 1.0 mg/kg/h, 24 h |  | time to ACT Emax | 96 h |
| COc1cc2c(NC3CCN(C)CC3)nc(N3CCCN(C)CC3)nc2cc1OCCOCCN(C)C | OCI-Ly1 |  |  | 1 µM, 120 h |  | viability | 155% |
| N#Cc1ccc2c(CN3CCOCC3)cc(-c3ccc([C@H]4CCC(=O)N4)cc3)nc2c1 |  |  | monocyte-derived macrophages, type 1 diabetes donors | 10 µM, 16 h | relative to: vehicle | CCL2 mRNA level | decreased |
| NC(=O)c1cnc2[nH]ccc2c1N[C@@H]1[C@@H]2CC3C[C@H]1C[C@@](O)(C3)C2 |  | CD4+ effector T cells, flow cytometry | Japanese humans, peripheral blood | 200 mg single dose | relative to: baseline | percent change | -0.05% |
| COCCOc1cnc2ccn([C@H](C)c3nnc4c(F)cc(-c5cnn(C)c5)cn34)c(=O)c2c1 |  |  | advanced solid tumour patients | dose not given |  | objective response rate | 9.9% |
| NCC(=O)Nc1cncc(-c2nn3c(=O)cc(N4CCNCC4)nc3s2)c1 |  | ADP-induced platelet aggregation, light transmission aggregometry | human stable CAD patients on aspirin, platelets ex vivo | 0.05 mg/kg, 5 min post dose, together with: 20 µM ADP | relative to: placebo difference | inhibition of platelet aggregation | 13.2% |
| Cc1noc(C)c1-c1cc(C(O)(c2ccccn2)c2ccccn2)c2nc(C3CC3)[nH]c2c1 |  | refers to: CCR2 expression | human, peripheral blood | 6 mg, day 8, 1599 study |  | maximum inhibition | 49% |
| N#Cc1ccn2c(-c3ccncc3)c(-c3ccc(F)cc3)nc2c1 |  | kinase binding, competitor, MIB/MS competition, refers to: YPK1 | Candida albicans cell lysate | 10 µM | relative to: DMSO | log2 fold change | -0.0357 |
| CC(=O)Nc1ccc(O)cc1 |  | barrier function (TEER) | human ileal GI microtissue EpiIntestinal-FT |  |  | IC15 | > 100 µM |
| CN[C@@H](C)C(=O)N[C@H]1CN(S(=O)(=O)c2cccc(S(=O)(=O)N3CC[C@H]4CC[C@@H](C(=O)NC(c5ccccc5)c5ccccc5)N4C(=O)[C@@H](NC(=O)[C@H](C)NC)C3)c2)CC[C@H]2CC[C@@H](C(=O)NC(c3ccccc3)c3ccccc3)N2C1=O |  | RECIST 1.1 | advanced pancreatic cancer patients | dose not given, efficacy-evaluable, together with: AG |  | disease control rate | 60% |
| O=C(c1ccc(OCCN2CCCCC2)cc1)c1c(-c2ccc(O)cc2)sc2cc(O)ccc12 |  |  | male ICR-CD1 mice | intracerebroventricular, 100 µg/animal, 25 to 30 min, together with: formalin 2% |  | paw licking time | 0 s |
| Cc1sc2c(c1C)C(c1ccc(Cl)cc1)=N[C@@H](CC(=O)NCCCCCCCCNC(=O)COc1cccc3c1C(=O)N(C1CCC(=O)NC1=O)C3=O)c1nnc(C)n1-2 (stereo partly shown) |  | flow cytometry | mice, 4T1 tumour | dose not given |  | M2 macrophages | 7.58% and 6.61% and 7.38% and 6.87% |
| [Cl-].[Cl-].[Pt+2].[Ru+2].c1ccc(-c2nccnc2-c2ccccn2)nc1.c1cnc2c(c1)ccc1cccnc12.c1cnc2c(c1)ccc1cccnc12 |  |  |  | concentration not given, first substitution step, together with: L-methionine |  | activation enthalpy | 32 ± 2 kJ/mol |
| O=C(O)Cc1ccccc1Nc1c(Cl)cccc1Cl |  | bioactivation, refers to: dansyl glutathione adduct M6 | human | pathway 3 |  | Vmax | 52 pmol/min/mg protein |
| O=C1c2ccncc2C(=O)c2c1[nH]c1ccccc21 |  |  | female monocrotaline PAH rat | intravenous, 1 mg/kg every 48 h, day 17 to 27 | relative to: vehicle | right ventricular fibrosis | decreased |
| CSCCNc1nc(SCCC(F)(F)F)nc2c1ncn2[C@@H]1O[C@H](COP(=O)(O)OP(=O)(O)C(Cl)(Cl)P(=O)(O)O)[C@@H](O)[C@H]1O |  | ADP-induced platelet aggregation, Multiplate aggregometry | human patients, whole blood | dose not given, 2 h, AUC above 46 | relative to: patients | high residual platelet reactivity | 14.3% |
| CC(C)NCC(O)c1ccc(O)c(O)c1 (stereo not shown) |  |  | ventricular cardiomyocytes, C57BL/6 mouse | dose not given, 0.136 s |  | sarcomere length | 1.63 µm |
| CO[C@H]1CC[C@H](N2C(=O)CNc3ncc(-c4ccc(C(C)(C)O)nc4)nc32)CC1 |  | flow cytometry | stimulated B cells, human, blood | 60 mg single dose, 24 h, median | relative to: baseline | pS6RP change from baseline | -3.9% |
| [Cl-].[Cl-].[Pt+2].[Ru+2].c1ccc(-c2nc3ccccc3nc2-c2ccccn2)nc1.c1cnc2c(c1)ccc1cccnc12.c1cnc2c(c1)ccc1cccnc12 |  |  |  | concentration not given, first substitution step, together with: thiourea |  | activation enthalpy | 27 ± 1 kJ/mol |
| CC(C)[C@H](C(=O)Nc1ccc(C(=O)NO)cc1)c1ccccc1 |  | volumetric MRI | human, left foramen magnum tumour | dose not given, day 373 | relative to: baseline | tumour volume change | -4% |
| CCCCC1(CCCC)CN(c2ccccc2)c2cc(SC)c(OCC(=O)N[C@@H](C(=O)NCC(=O)O)c3ccccc3)cc2S(=O)(=O)C1 |  | refers to: 7α-hydroxy-4-cholesten-3-one | human, plasma | 10 mg once daily, day 1 |  | plasma C4 | 13.3 ng/mL |
| O=C(O)CNC(=O)Cc1ccccc1 |  |  | ventricular cardiomyocytes, C57BL/6 mouse | dose not given, 0.324 s |  | sarcomere length | 1.72 µm |
| Cc1ccc(S(=O)(=O)NC(=O)c2cc3ccccc3n2Cc2ccc(C3CC3)c3ccccc23)cc1 |  |  | mouse, acute hyperuricaemia model, serum | oral, 2 mg/kg | relative to: vehicle model | serum uric acid decrease | 72.9% |
| OC(CCN1CCCCC1)(c1ccccc1)C1CC2C=CC1C2 (stereo not shown) |  | resting-state EEG | healthy elderly humans | oral, 4 mg, eyes closed, LS mean |  | EEG Alpha2-power Pz-O2 | 5.1 µV² |

Some of these lines once more:
| SMILES | tested on | test | system | setting | scale | quantity | value |
| --- | --- | --- | --- | --- | --- | --- | --- |
| COc1cc2cc(-c3ccc(CC(=O)Nc4cc(C(C)(C)C(F)(F)F)no4)cn3)cnc2cc1OC |  | RECIST v1.1 | RET-altered advanced solid tumour patients | oral, 10 mg once daily, phase I |  | objective response rate | 0% |
| Cc1ccc(S(=O)(=O)NC(=O)c2cc3ccccc3n2Cc2ccc(C3CC3)c3ccccc23)cc1 |  |  | mouse, acute hyperuricaemia model, serum | oral, 2 mg/kg | relative to: vehicle model | serum uric acid decrease | 72.9% |
| N#Cc1ccn2c(-c3ccncc3)c(-c3ccc(F)cc3)nc2c1 |  | kinase binding, competitor, MIB/MS competition, refers to: YPK1 | Candida albicans cell lysate | 10 µM | relative to: DMSO | log2 fold change | -0.0357 |
| COCCOc1cnc2ccn([C@H](C)c3nnc4c(F)cc(-c5cnn(C)c5)cn34)c(=O)c2c1 |  |  | advanced solid tumour patients | dose not given |  | objective response rate | 9.9% |
